{"data": "Results from different studies", "organism": "Acinetobacter baumannii", "note": "Each line is one published result; not all experiments were run side by side."}
{"Compound": "CC[C@H](C)[C@H](NC(=O)[C@H](C)NC(=O)[C@H](C)NC(=O)[C@H](CC(N)=O)NC(=O)[C@H](C)NC(=O)[C@H](C)NC(=O)[C@H](C)NC(=O)[C@H](CCCNC(=N)N)NC(=O)[C@H](CC(C)C)NC(=O)[C@@H](NC(=O)[C@H](CCC(=O)O)NC(=O)[C@@H]1CCCN1C(=O)CNC(=O)[C@H](CCCCN)NC(=O)[C@H](CCC(=O)O)NC(=O)[C@H](CCCCN)NC(=O)[C@@H](NC(=O)[C@H](Cc1ccccc1)NC(=O)[C@H](CC(=O)O)NC(=O)[C@H](CCCCN)NC(=O)[C@H](C)NC(=O)[C@H](CCCCN)NC(=O)[C@H](CC(N)=O)NC(=O)[C@H](CC(C)C)NC(=O)[C@H](Cc1c[nH]c2ccccc12)NC(=O)[C@H](CC(=O)O)NC(=O)[C@H](CCCCN)NC(=O)[C@H](Cc1c[nH]c2ccccc12)NC(=O)CN)[C@@H](C)CC)[C@@H](C)CC)C(=O)N[C@@H](CC(N)=O)C(=O)O", "test": "broth microdilution", "test system": "ATCC 19606", "conditions": "20 h, 37 °C", "measurement": "MIC", "value": "1.48 µM"}
{"Compound": "CC[C@H](C)[C@H](NC(=O)[C@H](Cc1c[nH]cn1)NC(=O)[C@H](Cc1c[nH]cn1)NC(=O)[C@H](Cc1ccccc1)NC(=O)[C@@H](N)Cc1ccccc1)C(=O)N[C@@H](Cc1ccccc1)C(=O)N[C@@H](CCCNC(=N)N)C(=O)NCC(=O)N[C@@H](C)C(=O)N[C@H](C(=O)N[C@@H](Cc1c[nH]cn1)C(=O)N[C@H](C(=O)NCC(=O)N[C@@H](CCCCN)C(=O)N[C@H](C(=O)N[C@H](C(=O)N[C@@H](Cc1c[nH]cn1)C(=O)N[C@@H](CCCNC(=N)N)C(=O)N[C@@H](CC(C)C)C(=O)N[C@H](C(=O)N[C@H](C(=O)NCC(N)=O)[C@@H](C)O)C(C)C)[C@@H](C)CC)[C@@H](C)O)C(C)C)C(C)C", "test system": "colistin-resistant clinical", "conditions": "18 h, 37 °C", "measurement": "MIC", "value": "3.1 µg/mL"}
{"Compound": "CC[C@H](C)[C@H](NC(=O)[C@H](CCCCN)NC(=O)[C@H](CC(C)C)NC(=O)[C@H](CC(C)C)NC(=O)[C@H](C)NC(=O)CNC(=O)[C@H](CC(C)C)NC(=O)[C@@H](N)Cc1ccccc1)C(=O)NCC(=O)N[C@@H](C)C(=O)N[C@@H](CCCCN)C(=O)N[C@@H](CC(C)C)C(=O)N[C@@H](CC(C)C)C(=O)N1CCC[C@H]1C(=O)N[C@@H](CO)C(=O)N[C@H](C(=O)N[C@H](C(=O)NCC(=O)N[C@@H](CC(C)C)C(=O)N[C@@H](Cc1ccccc1)C(=O)N[C@@H](CCCCN)C(=O)N[C@@H](CCCCN)C(=O)N[C@@H](CCCCN)C(=O)N[C@@H](CCC(N)=O)C(=O)N[C@@H](CCC(N)=O)C(=O)O)C(C)C)C(C)C", "test": "broth microdilution", "test system": "ATCC 19606", "conditions": "20 h, 37 °C", "measurement": "MIC", "value": "1.4 to 2.9 µM"}
{"Compound": "C[C@@H](O)[C@H]1C(=O)N2C(C(=O)O)=C(SCCN=CN)C[C@H]12", "test": "broth microdilution", "test system": "ATCC 17978 pET-RA-KmR OXA-23", "conditions": "without inhibitor", "measurement": "MIC", "value": "8 µg/mL"}
{"Compound": "CC(C)C[C@H](NC(=O)[C@H](CCCCN)NC(=O)[C@H](CC(C)C)NC(=O)[C@H](Cc1c[nH]c2ccccc12)NC(=O)[C@H](CCCNC(=N)N)NC(=O)[C@H](Cc1ccccc1)NC(=O)[C@H](CCCNC(=N)N)NC(=O)[C@H](CCCNC(=N)N)NC(=O)[C@H](CCCCN)NC(=O)[C@@H](N)CCCCN)C(=O)N[C@@H](CCCCN)C(=O)O", "test": "bacterial killing, colony count", "test system": "ATCC 17978", "conditions": "1 h, pH 7, 37 °C", "measurement": "EC50", "value": "10.6 µg/mL"}
{"Compound": "CC[C@H](C)[C@H](NC(=O)[C@H](CC(C)C)NC(=O)CNC(=O)[C@@H]1CCCN1C(=O)[C@H](CC(C)C)NC(=O)[C@H](C)NC(=O)[C@H](CCCCN)NC(=O)CNC(=O)[C@H](CC(C)C)NC(=O)[C@H](CCSC)NC(=O)[C@H](CCCCN)NC(=O)[C@H](C)NC(=O)[C@H](C)NC(=O)[C@H](C)NC(=O)CNC(=O)[C@H](Cc1c[nH]c2ccccc12)NC(=O)[C@@H](N)Cc1ccccc1)C(=O)N[C@@H](CO)C(=O)N[C@@H](CCSC)C(=O)N[C@@H](Cc1ccccc1)C(=O)N[C@@H](CCC(N)=O)C(=O)N[C@@H](CCCCN)C(=O)N[C@@H](CC(N)=O)C(=O)O", "test": "broth microdilution", "test system": "ATCC 19606", "conditions": "20 h, 37 °C", "measurement": "MIC", "value": "12.9 µM"}
{"Compound": "CC(C)C[C@H](NC(=O)[C@H](CCCNC(=N)N)NC(=O)[C@H](CCCCN)NC(=O)[C@@H](N)Cc1c[nH]c2ccccc12)C(=O)N[C@@H](CCCNC(=N)N)C(=O)N[C@@H](Cc1c[nH]c2ccccc12)C(=O)N[C@@H](CCCNC(=N)N)C(=O)N[C@@H](CCCNC(=N)N)C(=O)N[C@@H](Cc1ccccc1)C(=O)N[C@@H](Cc1ccccc1)C(=O)O", "test": "bacterial killing, colony count", "test system": "ATCC 17978", "conditions": "1 h, pH 7, 37 °C", "measurement": "EC50", "value": "19 µg/mL"}
{"Compound": "CC[C@H](C)[C@H](NC(=O)CNC(=O)[C@H](CCCNC(=N)N)NC(=O)[C@H](Cc1ccccc1)NC(=O)[C@@H](NC(=O)[C@H](Cc1c[nH]cn1)NC(=O)[C@H](Cc1c[nH]cn1)NC(=O)[C@H](Cc1ccccc1)NC(=O)[C@@H](N)Cc1ccccc1)[C@@H](C)CC)C(=O)N[C@H](C(=O)N[C@@H](Cc1c[nH]cn1)C(=O)N[C@H](C(=O)NCC(=O)N[C@@H](CCCCN)C(=O)N[C@H](C(=O)N[C@H](C(=O)N[C@@H](Cc1c[nH]cn1)C(=O)N[C@@H](CCCNC(=N)N)C(=O)N[C@@H](CC(C)C)C(=O)N[C@H](C(=O)N[C@H](C(=O)NCC(N)=O)[C@@H](C)O)C(C)C)[C@@H](C)CC)[C@@H](C)O)C(C)C)C(C)C", "test system": "colistin-resistant clinical", "conditions": "18 h, 37 °C", "measurement": "MIC", "value": "3.1 µg/mL"}
{"Compound": "Cc1cc(Nc2ccc(S(F)(F)(F)(F)F)cc2)n2ccnc2n1", "test": "optical density 600 nm", "test system": "meropenem-intermediate and -resistant", "measurement": "MIC", "value": "0.27 to 3 µg/mL"}
